Measurements collected from several papers.
A part holds a random share of what one study measured. Positions count from the first letter of the parent shown.

Block 1 — method: RNA Bind-n-Seq; molecule type: RNA; medium: in vitro; tested at: not given; relative to: input RNA pool; direction: higher = stronger binding; quantity: bound/input enrichment
Target: RING finger protein unkempt homolog, zinc fingers 1-6, GST-SBP tag (UNK, Homo sapiens, UniProt Q9C0B0, residues 30-357)
Setting: RNA with constant flanks, human-mouse chimeric sites, ends assumed
Constant ends, left off below: GGGAGUUCUACAGUCCGACGAUC … CAACAGAGGAUUGAGCAUCA
Construct (chain): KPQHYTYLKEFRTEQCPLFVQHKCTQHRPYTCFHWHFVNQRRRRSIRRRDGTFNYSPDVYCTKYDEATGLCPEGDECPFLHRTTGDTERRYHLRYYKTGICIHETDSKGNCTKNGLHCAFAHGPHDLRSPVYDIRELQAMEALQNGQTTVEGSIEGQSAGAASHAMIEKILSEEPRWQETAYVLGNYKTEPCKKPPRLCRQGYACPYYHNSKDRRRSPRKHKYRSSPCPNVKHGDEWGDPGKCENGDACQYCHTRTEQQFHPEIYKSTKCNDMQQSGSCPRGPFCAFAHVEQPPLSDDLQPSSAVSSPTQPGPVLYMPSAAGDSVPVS
CUGUGACCACAAGAUCCUGAAGUUUGAGCAGCUGAAGUUGACUCCCUCUCCUUGCCUGAACCCCCCCCCACUGCCCCCCCAUCCCCCAGUGUCGGCUAUUCUCUGGUCUCUGCACGGUUC: 0.962 ratio
UGACAAGGGCACUGCAGAGCCAUGCCUUUCCUUGACAUACAGAAAAAGCUGGGCAUCAACAUAGAUCGGCACUUUAUGUUCCUAAGCGCAGAACAGCCCUAUAAGAACGCCGCUCGGUGC: 0.0944 ratio
AACAGAUUGUCUUUAAGCAUUCCAAGCGAGAAUGCUGGGGUGAUCAUAAUUACCCACAUAUAGUAAUACUGAGCUUUAAUGCUGUUCCAUGUUACAUCUUUCCUUCACUCCAGAAUUGUU: 0.865 ratio
CUUUUUAAGAAGAUAUGUGAUGGGAUCUUCUAUACCCCUCAGUACUUAAAUCCUUCUGUAAUCAGCCUUUUGAAACAUAUGCUGCAGGUGGAUCCCAUGAAGAGGGCCGCAAUAAAAGAU: 0.194 ratio
GAAUCCUACUCAGGCGGAUUUUGCAACCUGAAUGCAACAGCAGCAGCAUCUUAGUCACAGUAGGGUAGUUUUGGGGCAAUAUUGCCAGGGUUUUAUUCACAUGCAGGUUUGGAAAAUGUA: 1.01 ratio
CCCUCCCCGGGCCACCCACCCCUCCCGCUCCCAGCGGGAGAUCCAGGUUUCUUCUUAUUUCAUAGCAAAUAAGAAAAAUGUUCUACGCACAUUUUGUUCUCAGUAAACGAGGGCCUCUGG: 0.397 ratio
UUAUCCAAGACUCAACGAAAGACUCCAACGGUUAUUCAUAAACAUUACCAAAUACAUCGGAUUCGACAUUUUUACAUGAGAAAAGUCAAAUUUACUCAACAGAAUUACCAUGACAGACUG: 0.215 ratio
CACGUGUCUGCAGUGCUUGAUGUGGACUACUCUCCCACUGGGAAGGAGUUUGUGUCUGCCAGCUUUGAUAAGUCUAUUAGAAUCUUUCCUGUGGACAAGAGCCGAAGCAGGGAAGUGUAU: 0.439 ratio

Block 2 — method: protein binding microarray; molecule type: double-stranded DNA, one strand shown; medium: in vitro; tested at: not given; relative to: not given; direction: higher = stronger binding; quantity: E-score
Target: Histone acetyltransferase KAT6A, winged helix 2, GST fusion (KAT6A, Homo sapiens, UniProt Q92794, residues 85-181)
Setting: 8-mer, flanks averaged, mean of 2 arrays, mostly near background
Construct (chain): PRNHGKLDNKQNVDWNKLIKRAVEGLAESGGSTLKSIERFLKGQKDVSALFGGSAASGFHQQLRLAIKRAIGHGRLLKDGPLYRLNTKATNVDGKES
CTTCTGCC: 0.145
CTGGACAA: -0.149
GTACGCCA: -0.0569
CCAAACTC: 0.193
AGTGGTGA: -0.0483
CATGGCCA: -0.092
CATTCGCG: 0.0691
ACCACACT: -0.0742
AAAGTCAC: -0.139
TAGAGTAA: 0.00817
CAGAGGTA: 0.0153
CACAACTA: -0.0578
CGCGACAA: 0.117
AGTATTCC: -0.00418
CAAAAAGA: 0.102
GCTTGACA: 0.0281
ATTGCGTG: 0.00284
GCCCTCCC: 0.134
AGGACGTG: -0.0865
CTATATGC: -0.0346
AAATTTCT: 0.041
AATTCGAA: -0.053
AGCGCCTA: -0.132
CAGGTGGC: 0.078
CTACCGAG: 0.0329

Block 3 — target: CCNA2, cyclin fold, Cln2 fusion (human); method: yeast growth competition, sequencing; medium: yeast; setting: strong parent motif; relative to: not given; direction: higher = stronger binding; quantity: normalised enrichment score
Starting sequence: BRCA2 docking peptide (human); PSIKRNLLNEFDR
R13N: 5.55
L8D: 0.364
F11P: 1.05
K4A: 4.69
N6T: 2.33
N6M: 1.64
L8W: 1.16
N9V: 5.16
N6Y: 0.933
L7Q: 1.07
P1S: 4.69
R13E: 4.51
L7P: 0.216
R13K: 4.77
F11H: 0.078
E10Y: 3.42
L8V: 4.44

Block 4 — target: HLF, bZIP domain (human); method: DHFR protein complementation; medium: yeast; relative to: wild-type JUN-FOS pair; direction: higher = stronger binding; quantity: binding fitness
Setting: single substitutions, most at no-binding floor
Starting sequence: JUN, bZIP domain (human); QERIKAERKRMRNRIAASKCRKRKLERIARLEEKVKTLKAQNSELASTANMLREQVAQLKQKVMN; partner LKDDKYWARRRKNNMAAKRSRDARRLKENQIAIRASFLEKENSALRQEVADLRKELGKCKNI
E32G: -1.44 natural log
E33C: -1.51 natural log
A49E: -1.5 natural log
A57R: -1.43 natural log
A57T: -1.52 natural log
A57G: -1.45 natural log
S43G: -1.42 natural log
S43I: -1.27 natural log
E32H: -1.4 natural log
L38P: -1.56 natural log
E33W: -1.5 natural log
A29R: -1.36 natural log
V56C: -1.32 natural log

Block 5 — method: DHFR PCA, deep sequencing; medium: yeast; with: (+)-ABA 17 µM; relative to: wild-type fitted maximum; direction: higher = stronger binding; quantity: relative binding score
Target: ABI1, truncated, D143A, DHFR fusion (Arabidopsis thaliana)
Setting: methotrexate growth selection, single substitutions
Starting sequence: PYL1, truncated, DHFR fusion (Arabidopsis thaliana); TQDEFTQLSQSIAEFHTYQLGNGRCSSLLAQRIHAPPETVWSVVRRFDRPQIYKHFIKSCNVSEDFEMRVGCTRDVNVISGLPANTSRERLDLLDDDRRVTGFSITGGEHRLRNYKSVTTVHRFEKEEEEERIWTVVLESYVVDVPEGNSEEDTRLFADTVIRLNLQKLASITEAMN; partner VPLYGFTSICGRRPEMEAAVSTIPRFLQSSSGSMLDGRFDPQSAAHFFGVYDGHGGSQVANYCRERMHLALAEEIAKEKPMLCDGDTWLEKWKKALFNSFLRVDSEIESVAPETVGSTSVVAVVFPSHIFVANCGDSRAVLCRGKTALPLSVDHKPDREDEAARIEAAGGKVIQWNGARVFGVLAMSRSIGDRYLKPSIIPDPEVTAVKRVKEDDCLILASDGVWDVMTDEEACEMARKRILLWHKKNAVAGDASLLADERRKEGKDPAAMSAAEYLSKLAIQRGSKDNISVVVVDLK
L91A: -3.29%
H110E: 3.53%
R49N: 79.6%
V121K: 1.64%
T73C: 78.7%
T6Q: 88.2%
F15E: 13.6%
L20Y: 76.9%
K58W: 26.2%
S117G: 14.1%
I33S: 1.28%
G21W: 64.2%
D3I: 73.9%
R163F: -1.28%
L112R: -3%

Further values, each from its own experiment — method: cross-linking MS
NOP14 (Homo sapiens, UniProt P78316)  cross-linked residues (NOC4L (Homo sapiens, UniProt Q9BVI4); cell fractions; with: DSSO): K535 to K342
SF3A3 (Homo sapiens, UniProt Q12874)  cross-linked residues (SF3B4 (Homo sapiens, UniProt Q15427); cell fractions; with: DSSO): K420 to T42
FBL (Homo sapiens, UniProt P22087)  cross-linked residues (BMS1 (Homo sapiens, UniProt Q14692); cell fractions; with: DSSO): K102 to K1206
SFPQ (Homo sapiens, UniProt P23246)  interaction screen (NONO (Homo sapiens, UniProt Q15233); hits only): cross-linked
